{"data": "Published values from different studies", "note": "Each line is one published result; not all experiments were run side by side. Several values in a cell are separate wells, animals, samples, runs or records. ± gives the spread as reported."}
{"SMILES": "NC(=O)N/N=C/c1ccc(OCc2ccccc2)cc1", "cell line": "IMR-32", "conditions": "500 µg/mL, 24 h", "how to read": "higher = more activity", "endpoint": "catalase activity (OD450)", "result": "0.382 a.u."}
{"SMILES": "CC(C)C[C@H](NC(=O)[C@H](CC(=O)O)NC(=O)CNC(=O)[C@@H](N)CCCNC(=N)N)C(=O)N[C@@H](C)C(=O)N[C@H](C(=O)N[C@@H](CC(C)C)C(=O)N[C@@H](CCCNC(=N)N)C(=O)N[C@@H](CCC(N)=O)C(=O)N[C@@H](CC(C)C)C(=O)N[C@@H](C)C(=O)N[C@@H](CCC(N)=O)C(=O)N[C@@H](CCC(=O)O)C(=O)N[C@@H](CC(=O)O)C(=O)NCC(=O)N[C@H](C(=O)N[C@H](C(=O)NCC(=O)N[C@H](C(=O)N[C@@H](CCCNC(=N)N)C(=O)NCCOCCOCCOCCOCCOCCOCCOCCOCCOCCOCCOCCOCCC(=O)N[C@@H](CS)C(N)=O)C(C)C)C(C)C)C(C)C)[C@@H](C)O", "cell line": "HCC461", "test": "phage binding", "how to read": "baseline: targeting over control phage", "endpoint": "selectivity ratio", "result": "10 ± 5.8"}
{"SMILES": "CSCC[C@H](N)C(=O)N[C@@H](C)C(=O)N[C@@H](Cc1c[nH]c2ccccc12)C(=O)N[C@@H](Cc1c[nH]cn1)C(=O)N[C@@H](CC(=O)O)C(=O)N[C@@H](CC(=O)O)C(=O)N[C@@H](CCC(=O)O)C(=O)N[C@@H](CCC(=O)O)C(=O)N[C@@H](Cc1ccccc1)C(=O)N[C@@H](C)C(=O)N[C@@H](CCCNC(=N)N)C(=O)N[C@@H](CCCNC(=N)N)C(=O)N[C@@H](CCCNC(=N)N)C(=O)N[C@@H](CCCNC(=N)N)C(=O)NCCCCCC(=O)NCCCCC(NC(=O)CCCCCNC(=O)[C@H](CCCNC(=N)N)NC(=O)[C@H](CCCNC(=N)N)NC(=O)[C@H](CCCNC(=N)N)NC(=O)[C@H](CCCNC(=N)N)NC(=O)[C@H](C)NC(=O)[C@H](Cc1ccccc1)NC(=O)[C@H](CCC(=O)O)NC(=O)[C@H](CCC(=O)O)NC(=O)[C@H](CC(=O)O)NC(=O)[C@H](CC(=O)O)NC(=O)[C@H](Cc1c[nH]cn1)NC(=O)[C@H](Cc1c[nH]c2ccccc12)NC(=O)[C@H](C)NC(=O)[C@@H](N)CCSC)C(=O)NCCCCC(NC(=O)C(CCCCNC(=O)CCCCCNC(=O)[C@H](CCCNC(=N)N)NC(=O)[C@H](CCCNC(=N)N)NC(=O)[C@H](CCCNC(=N)N)NC(=O)[C@H](CCCNC(=N)N)NC(=O)[C@H](C)NC(=O)[C@H](Cc1ccccc1)NC(=O)[C@H](CCC(=O)O)NC(=O)[C@H](CCC(=O)O)NC(=O)[C@H](CC(=O)O)NC(=O)[C@H](CC(=O)O)NC(=O)[C@H](Cc1c[nH]cn1)NC(=O)[C@H](Cc1c[nH]c2ccccc12)NC(=O)[C@H](C)NC(=O)[C@@H](N)CCSC)NC(=O)CCCCCNC(=O)[C@H](CCCNC(=N)N)NC(=O)[C@H](CCCNC(=N)N)NC(=O)[C@H](CCCNC(=N)N)NC(=O)[C@H](CCCNC(=N)N)NC(=O)[C@H](C)NC(=O)[C@H](Cc1ccccc1)NC(=O)[C@H](CCC(=O)O)NC(=O)[C@H](CCC(=O)O)NC(=O)[C@H](CC(=O)O)NC(=O)[C@H](CC(=O)O)NC(=O)[C@H](Cc1c[nH]cn1)NC(=O)[C@H](Cc1c[nH]c2ccccc12)NC(=O)[C@H](C)NC(=O)[C@@H](N)CCSC)C(N)=O (stereo partly shown)", "cell line": "RAW264.7", "conditions": "3.0 µM, 5 days", "how to read": "baseline: control", "endpoint": "osteoclastogenesis", "result": "23.4%"}
{"SMILES": "NC(=O)CCCCC=C1C(=O)OC1CCc1ccccc1 (stereo not shown)", "cell line": "mouse peritoneal macrophages ABHD16A knock-out", "test": "cellular and secreted lipids", "conditions": "1 µM, 4 h, basal and LPS-stimulated", "endpoint": "lyso-PS level", "result": "no effect"}
{"SMILES": "CC(C)(C)C(=O)OCOP(=O)(OCOC(=O)C(C)(C)C)C1CCCN(O)C1=O (stereo not shown)", "cell line": "TK-10", "endpoint": "TGI", "result": "8.05 µM"}
{"SMILES": "CSCC[C@H](NC(=O)CNC(=O)[C@H](CCSC)NC(=O)[C@H](CS)NC(=O)[C@@H](N)CS)C(=O)N[C@@H](CS)C(=O)NCC(=O)N[C@@H](CCCCN)C(=O)O", "cell line": "RAW264.7", "test": "Western blot", "conditions": "concentration not given, 6 h pretreatment, together with: LPS 30 min", "endpoint": "p-NF-κB/NF-κB ratio", "result": "0.17 ± 0.01"}
{"SMILES": "CNC(=S)N/N=C/c1ccc(OCc2ccccc2)cc1", "cell line": "IMR-32", "test": "measured: GPX3", "conditions": "50 µg/mL, 24 h", "how to read": "higher = more activity", "endpoint": "glutathione peroxidase activity (OD450)", "result": "0.01 a.u."}
{"SMILES": "O=C(C[Se]C(=O)c1ccccc1)Nc1cccc(C(F)(F)F)c1", "cell line": "NCI60 melanoma subpanel", "test": "cell growth", "conditions": "10 µM, 48 h, one-dose", "endpoint": "mean growth percent", "result": "-56.5%"}
{"SMILES": "Cc1cc(Oc2nc(N3CC[C@@H](c4ccncc4)C3)ncc2F)[nH]n1", "cell line": "SK-MEL-5", "test": "cell proliferation", "system": "skin cancer", "endpoint": "IC50", "result": "64.6 µM"}
{"SMILES": "O=C(C[Se]C(=O)c1cccs1)Nc1cccc(C(F)(F)F)c1", "cell line": "NCI60 melanoma subpanel", "test": "total growth inhibition, inhibitor", "conditions": "five-dose", "endpoint": "mean TGI", "result": "3.41 µM"}
{"SMILES": "CC(C)CC(O)(CC(C)C)c1cn(C(=O)N2CCCC2)nn1", "cell line": "mouse T-cells", "test": "protein abundance, unenriched SILAC proteomics, measured: Niban", "conditions": "1 nM, 6 h, single tryptic peptide", "how to read": "baseline: DMSO", "endpoint": "SILAC ratio", "result": "1.13 and 1.07"}
{"SMILES": "O=C(C[Se]C(=O)c1cc2ccccc2s1)Nc1cccc(C(F)(F)F)c1", "cell line": "NCI60 leukaemia subpanel", "test": "NCI60 five-dose screen", "endpoint": "CC50", "result": "10.4 µM"}
{"SMILES": "CC=C1CNC2CC3(C(=O)N(OC)c4cc(OC)ccc43)C3CC1C2CO3 (stereo not shown)", "cell line": "HT-22", "test": "CCK-8", "conditions": "up to 100 µM, 24 h", "endpoint": "viability", "result": "no effect"}
{"SMILES": "CC(=O)NCSC[C@H](NC(=O)[C@@H]1CCCN1C(=O)[C@H](C)NC(=O)[C@@H](NC(=O)CNC(=O)[C@@H](NC(=O)[C@H](Cc1c[nH]c2ccccc12)NC(=O)[C@H](C)NC(=O)CNC(=O)[C@H](CO)NC(=O)[C@H](C)NC(=O)[C@@H]1CCCN1C(=O)[C@H](Cc1c[nH]c2ccccc12)NC(=O)[C@H](C)NC(=O)[C@H](C)NC(=O)[C@@H](N)Cc1ccc(O)cc1)[C@@H](C)O)[C@@H](C)O)C(=O)N[C@@H](CO)C(=O)N[C@@H](C)C(=O)NCC(=O)N[C@H](C(=O)NCCOCCOCCOCCOCCOCCOCCOCCOCCOCCOCCOCCOCCC(=O)N[C@@H](CS)C(N)=O)[C@@H](C)O", "cell line": "PC-3 prostate cancer", "test": "phage binding", "how to read": "baseline: targeting over control phage", "endpoint": "selectivity ratio", "result": "12 ± 2.4"}
{"SMILES": "O=C(C[Se]C(=O)c1ccco1)Nc1cccc(C(F)(F)F)c1", "cell line": "NCI60 melanoma subpanel", "test": "cell growth, inhibitor", "conditions": "five-dose", "endpoint": "GI50", "result": "3.13 µM"}
{"SMILES": "CC(C)[C@H](NC(=O)[C@H](CCCNC(=N)N)NC(=O)[C@@H]1CCCN1C(=O)[C@@H](NC(=O)[C@H](C)NC(=O)[C@H](Cc1ccc(O)cc1)NC(=O)[C@H](CCC(N)=O)NC(=O)[C@H](CCCCN)NC(=O)[C@H](CCCNC(=N)N)NC(=O)[C@@H]1CCCN1C(=O)[C@H](CCC(=O)O)NC(=O)[C@@H](NC(=O)[C@H](C)N)[C@@H](C)O)[C@@H](C)O)C(=O)N[C@@H](Cc1ccccc1)C(=O)N[C@@H](Cc1c[nH]c2ccccc12)C(=O)N[C@H](C(=O)N[C@@H](CC(=O)O)C(=O)N[C@@H](C)C(=O)N1CCC[C@H]1C(=O)NCC(=O)NCCOCCOCCOCCOCCOCCOCCOCCOCCOCCOCCOCCOCCC(=O)N[C@@H](CS)C(N)=O)[C@@H](C)O", "cell line": "HCC461", "test": "phage binding", "how to read": "baseline: targeting over control phage", "endpoint": "selectivity ratio", "result": "4.2 ± 1.7"}
{"SMILES": "CC[C@H](C)[C@H](NC(=O)[C@H](C)NC(=O)CNC(=O)[C@H](Cc1ccccc1)NC(=O)[C@H](CC(N)=O)NC(=O)[C@H](CC(N)=O)NC(=O)[C@H](CO[C@@H]1O[C@H](CO)[C@@H](O)[C@H](O)[C@H]1NC(C)=O)NC(=O)[C@H](CO)NC(=O)[C@H](Cc1c[nH]cn1)NC(=O)[C@@H](NC(=O)[C@H](CC(C)C)NC(=O)[C@H](Cc1ccccc1)NC(=O)[C@H](CC(N)=O)NC(=O)[C@H](C)NC(=O)[C@@H](N)CC(C)C)C(C)C)C(=O)N[C@@H](CC(C)C)C(N)=O", "cell line": "INS-1", "test": "MTT", "conditions": "10 equivalents to hIAPP, 24 h, together with: hIAPP 1 µM", "endpoint": "viability", "result": "77.8% and 80.5%"}
{"SMILES": "CSCC[C@H](NC(=O)[C@@H](NC(=O)[C@H](CCC(N)=O)NC(=O)[C@H](CO)NC(=O)[C@@H](N)C(C)C)[C@@H](C)O)C(=O)N[C@@H](CCCNC(=N)N)C(=O)N[C@@H](CCC(N)=O)C(=O)N[C@H](C(=O)N[C@@H](C)C(=O)N[C@H](C(=O)N1CCC[C@H]1C(=O)N[C@@H](CC(C)C)C(=O)N[C@@H](CC(C)C)C(=O)N[C@@H](Cc1c[nH]c2ccccc12)C(=O)N[C@@H](Cc1ccccc1)C(=O)N[C@@H](Cc1c[nH]c2ccccc12)C(=O)N[C@H](C(=O)NCC(=O)N[C@@H](CO)C(=O)N[C@@H](CC(C)C)C(=O)NCCOCCOCCOCCOCCOCCOCCOCCOCCOCCOCCOCCOCCC(=O)N[C@@H](CS)C(N)=O)[C@@H](C)O)C(C)C)[C@@H](C)O", "cell line": "PC-3 prostate cancer", "test": "phage binding", "how to read": "baseline: targeting over control phage", "endpoint": "selectivity ratio", "result": "4.2 ± 1.6"}
{"SMILES": "CC1CCC2C(C)C(OC(=O)CCC(=O)N3CCC(Nc4ccc(S(=O)(=O)NC(=O)c5ccc(N6CCN(CC7=C(c8ccc(Cl)cc8)CC(C)(C)CC7)CC6)cc5Oc5cnc6[nH]ccc6c5)cc4[N+](=O)[O-])CC3)OC3OC4(C)CCC1C32OO4 (stereo not shown)", "cell line": "THP-1", "test": "annexin V/PI flow cytometry, measured: annexin V+/PI+", "conditions": "0.4 µM, 24 h", "endpoint": "late apoptotic cells", "result": "16.1%"}
{"note": "A few entries again:"}
{"SMILES": "CC(C)CC(O)(CC(C)C)c1cn(C(=O)N2CCCC2)nn1", "cell line": "mouse T-cells", "test": "protein abundance, unenriched SILAC proteomics, measured: Niban", "conditions": "1 nM, 6 h, single tryptic peptide", "how to read": "baseline: DMSO", "endpoint": "SILAC ratio", "result": "1.13 and 1.07"}
{"SMILES": "NC(=O)CCCCC=C1C(=O)OC1CCc1ccccc1 (stereo not shown)", "cell line": "mouse peritoneal macrophages ABHD16A knock-out", "test": "cellular and secreted lipids", "conditions": "1 µM, 4 h, basal and LPS-stimulated", "endpoint": "lyso-PS level", "result": "no effect"}
